Measurements gathered from unrelated publications.
Compare with care: the assays were run in different laboratories. ≈ marks a conversion by molar mass, not a printed value.
Organism: Mycobacterium tuberculosis

Compound | assay | system | conditions | measurement | value
O=C(OCc1ccccc1)[C@@H]1COC(c2ccccc2)=N1 | microplate alamar blue | H37Rv (ATCC 27294), 7H12 medium | replicating bacteria, range | MIC | 3.8 to 24 µM (≈ 1.07 to 6.75 µg/mL)
c1ccc(NCc2ccc(Oc3ccccn3)cc2)cc1 |  | H37Rv, 7H9/ADC/Tween medium | 1 weeks | MIC | > 50 µM
NCCCCCCCCCCCC(=O)NS(=O)(=O)OC[C@H]1O[C@@H](n2cnc3c(N)ncnc32)[C@H](O)[C@@H]1O | broth microdilution | H37Rv, GAST medium | MIC at >99% growth inhibition | MIC | 3.13 to 6.25 µM (≈ 1.7 to 3.4 µg/mL)
[H]/N=C(/N)N[C@H]1[C@H](O)[C@@H](O)[C@H](O[C@@H]2O[C@@H](C)[C@](O)(C=O)[C@H]2O[C@@H]2O[C@@H](CO)[C@H](O)[C@@H](O)[C@@H]2NC)[C@@H](N/C(N)=N\[H])[C@@H]1O | microbial growth, disc diffusion | ATCC25177 | 1 µg/disc, 12 days | inhibition zone | 0 mm
Nc1ncnc2c1ncn2[C@@H]1O[C@H](CNS(=O)(=O)NC(=O)CCCCCCCCCCOc2ccccc2)[C@@H](O)[C@H]1O | broth microdilution | H37Rv, GAST medium | MIC at >99% growth inhibition | MIC | 1.56 to 3.13 µM (≈ 0.945 to 1.9 µg/mL)
NNC(=O)c1ccncc1 |  | H37Rv, GAST-Fe medium | 1 weeks, pH 6.6 | MIC | 0.2 µM (≈ 0.0274 µg/mL)
O=C(OCc1ccccc1)c1coc(-c2ccccc2)n1 | microplate alamar blue | H37Rv (ATCC 27294), 7H12 medium | replicating bacteria, range | MIC | 3 to 5 µM (≈ 0.838 to 1.4 µg/mL)
NCC[C@H](O)C(=O)N[C@@H]1C[C@H](N)[C@@H](O[C@H]2O[C@H](CN)[C@@H](O)[C@H](O)[C@H]2O)[C@H](O)[C@H]1O[C@H]1O[C@H](CO)[C@@H](O)[C@H](N)[C@H]1O | microbial growth, resazurin | H37RV |  | IC50 | 0.072 µg/mL
CC(C)=CCCC(C)=CCNCCNC1(C)C2CC3CC(C2)CC1C3 (centres unmarked) | growth | Erdman |  | IC50 | 2000 nM
Cc1ccn2c(C(=O)NCc3ccccc3)c(C)nc2c1 | microplate alamar blue | H37Rv (ATCC 27294), 7H12 medium | replicating bacteria, range | MIC | 1.9 to 2.7 µM (≈ 0.531 to 0.754 µg/mL)
Cc1cccc(NCc2ccc(Oc3ccccn3)cc2)c1 |  | H37Rv, GAST-Fe medium | 2 weeks, pH 6.6 | MIC | 43 µM (≈ 12.5 µg/mL)
CCCCC/C=C\CCCC(=O)NS(=O)(=O)OC[C@H]1O[C@@H](n2cnc3c(N)ncnc32)[C@H](O)[C@@H]1O | broth microdilution | H37Rv, GAST medium | MIC at >99% growth inhibition | MIC | 6.25 µM (≈ 3.2 µg/mL)
Cc1ccc(NCc2ccc(Oc3ccccn3)cc2)cc1 |  | H37Rv, 7H9/ADC/Tween medium | 1 weeks | MIC | 86 µM (≈ 25 µg/mL)
Nc1ncnc2c1ncn2[C@@H]1O[C@H](COS(=O)(=O)NC(=O)CCCCCCCCCCOc2ccc(F)cc2)[C@@H](O)[C@H]1O | broth microdilution | H37Rv, GAST medium | MIC at >99% growth inhibition | MIC | 12.5 to 25 µM (≈ 7.81 to 15.6 µg/mL)
O=C(OCc1ccccc1)[C@@H]1CSC(c2ccccc2)=N1 | microplate alamar blue | H37Rv (ATCC 27294), 7H12 medium | replicating bacteria, range | MIC | 7.7 to 17.4 µM (≈ 2.29 to 5.17 µg/mL)
Clc1ccccc1NCc1ccc(Oc2ccccn2)cc1 |  | H37Rv, GAST-Fe medium | 1 weeks, pH 6.6 | MIC | 20.1 µM (≈ 6.24 µg/mL)
COc1c(N2C[C@@H]3CCCN[C@@H]3C2)c(F)cc2c(=O)c(C(=O)O)cn(C3CC3)c12 |  | mouse, lung | inhaled or intranasal, 30 mg/kg once daily, 216 h | lung CFU reduction | 3.07 log10 CFU
